Experimental data pooled from the literature.
Several values in a cell are separate wells, animals, samples, runs or records. Numbers after ± are the reported error.
Genome polyprotein NS3 helicase domain: Genome polyprotein, NS3 helicase domain (Hepatitis C virus genotype 1b, UniProt Q9WMX2)
WD repeat-containing protein 91 WD40 domain, residues 392–747: WD repeat-containing protein 91, WD40 domain, residues 392–747 (Homo sapiens, UniProt A4D1P6)
Sequence of UniProt A4D1P6 (whole entry, looked up): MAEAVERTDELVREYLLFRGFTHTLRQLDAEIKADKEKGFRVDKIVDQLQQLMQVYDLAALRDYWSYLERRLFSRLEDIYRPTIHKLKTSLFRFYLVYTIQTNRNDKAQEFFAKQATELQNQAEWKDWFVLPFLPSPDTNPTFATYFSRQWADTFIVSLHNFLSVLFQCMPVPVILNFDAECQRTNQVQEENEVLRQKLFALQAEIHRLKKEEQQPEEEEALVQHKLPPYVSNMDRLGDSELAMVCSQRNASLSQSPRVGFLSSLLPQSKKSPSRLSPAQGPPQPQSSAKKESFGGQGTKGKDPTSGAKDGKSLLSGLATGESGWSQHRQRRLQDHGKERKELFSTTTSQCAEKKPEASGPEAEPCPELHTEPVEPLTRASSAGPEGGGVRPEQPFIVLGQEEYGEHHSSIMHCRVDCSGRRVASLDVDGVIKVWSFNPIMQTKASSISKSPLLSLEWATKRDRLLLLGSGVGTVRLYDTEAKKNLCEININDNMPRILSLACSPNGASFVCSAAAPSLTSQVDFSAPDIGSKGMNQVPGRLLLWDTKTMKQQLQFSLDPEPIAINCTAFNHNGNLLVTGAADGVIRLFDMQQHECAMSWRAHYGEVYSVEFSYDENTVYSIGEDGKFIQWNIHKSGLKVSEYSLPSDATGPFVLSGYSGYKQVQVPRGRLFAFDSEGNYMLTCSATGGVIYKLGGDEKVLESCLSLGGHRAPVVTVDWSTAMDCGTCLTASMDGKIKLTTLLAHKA
ESR1: Estrogen receptor (ESR1, Homo sapiens, UniProt P03372)
WD repeat-containing protein 91: WD repeat-containing protein 91 (Homo sapiens, UniProt A4D1P6)
Sequence of UniProt Q16774 (whole entry, looked up): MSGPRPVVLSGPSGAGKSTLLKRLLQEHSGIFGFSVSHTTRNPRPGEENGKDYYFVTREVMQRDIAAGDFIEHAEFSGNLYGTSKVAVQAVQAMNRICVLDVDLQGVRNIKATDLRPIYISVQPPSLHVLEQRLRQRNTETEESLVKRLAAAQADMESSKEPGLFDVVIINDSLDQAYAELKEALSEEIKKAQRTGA
Sequence of UniProt O76090 (whole entry, unmodified, looked up): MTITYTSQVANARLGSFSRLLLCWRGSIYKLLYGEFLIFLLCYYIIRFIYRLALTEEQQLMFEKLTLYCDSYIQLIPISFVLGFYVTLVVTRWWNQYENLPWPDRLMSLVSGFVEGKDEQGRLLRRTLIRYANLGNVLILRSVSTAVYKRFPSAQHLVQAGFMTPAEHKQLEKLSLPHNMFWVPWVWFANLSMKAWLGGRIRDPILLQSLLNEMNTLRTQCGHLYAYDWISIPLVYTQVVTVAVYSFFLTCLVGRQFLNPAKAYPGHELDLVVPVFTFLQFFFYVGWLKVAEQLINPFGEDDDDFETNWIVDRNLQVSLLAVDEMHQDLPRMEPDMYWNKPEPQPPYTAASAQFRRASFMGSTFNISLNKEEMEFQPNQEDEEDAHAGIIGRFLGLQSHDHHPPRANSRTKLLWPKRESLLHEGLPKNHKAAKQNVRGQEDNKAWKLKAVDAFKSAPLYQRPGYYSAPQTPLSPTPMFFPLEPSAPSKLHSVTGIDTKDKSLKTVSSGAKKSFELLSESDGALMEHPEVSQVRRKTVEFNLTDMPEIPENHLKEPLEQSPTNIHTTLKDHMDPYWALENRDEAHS
Sequence of UniProt P51449 (whole entry, looked up): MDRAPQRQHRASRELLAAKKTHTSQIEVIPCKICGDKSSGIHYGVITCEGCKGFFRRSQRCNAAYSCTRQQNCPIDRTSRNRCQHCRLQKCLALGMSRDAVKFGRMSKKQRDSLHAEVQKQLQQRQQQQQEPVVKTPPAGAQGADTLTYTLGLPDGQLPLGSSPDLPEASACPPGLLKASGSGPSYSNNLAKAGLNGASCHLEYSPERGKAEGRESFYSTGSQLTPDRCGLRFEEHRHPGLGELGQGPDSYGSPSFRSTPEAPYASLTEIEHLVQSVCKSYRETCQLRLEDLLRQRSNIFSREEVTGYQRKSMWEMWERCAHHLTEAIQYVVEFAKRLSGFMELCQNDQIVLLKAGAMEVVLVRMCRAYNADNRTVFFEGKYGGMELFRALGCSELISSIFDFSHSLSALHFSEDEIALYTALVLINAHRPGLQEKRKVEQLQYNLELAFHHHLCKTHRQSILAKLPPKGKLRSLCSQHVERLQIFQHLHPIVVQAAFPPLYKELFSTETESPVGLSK

SMILES	target	assay	system	setting	how to read	quantity	value
Nc1c(Br)cc(Br)cc1CN[C@H]1CC[C@H](O)CC1	Glutamate receptor 2 (Homo sapiens, UniProt P42262)	ion current, agonist, SyncroPatch patch clamp	HEK293	30 µM		activation	4%
CN1C(C(=O)Nc2ccccn2)=C(O)c2sc(Cl)cc2S1(=O)=O	Nuclear receptor subfamily 4 group A member 3, ligand-binding domain (Homo sapiens, UniProt Q92570)	reporter gene, Gal4 hybrid reporter		30 µM	relative to: vehicle	activation	0.73 fold
Nc1ccc(C(=O)O)cc1	BEST1, with wild-type BEST1 (Homo sapiens, UniProt O76090, A10T)	whole-cell patch clamp	HEK293 co-expressing WT and A10T mutant	concentration not given, membrane potential -40 mV		current density	-19.1 pA/pF and -5.56 pA/pF and -3.92 pA/pF and -8.21 pA/pF and -11.7 pA/pF and -11 pA/pF
CC[C@H]1CN2CCc3cc(OC)c(OC)cc3[C@@H]2C[C@@H]1C[C@H]1NCCc2cc(OC)c(OC)cc21	Genome polyprotein NS3 helicase domain	DNA binding, inhibitor	hepatitis C virus	100 µM, together with: Cy5-dT15 DNA		inhibition	2%
N#CC1CCN(C(=O)c2ccc(CNc3cccc4c3CCCC4)cc2)CC1	WD repeat-containing protein 91 WD40 domain, residues 392–747	binding, SPR single-concentration screen		45 µM		SPR response	21.2 RU and 11.7 RU
Nc1nc2c(ncn2[C@@H]2O[C@@H]3COP(=O)(O)O[C@H]3[C@H]2O)c(=O)[nH]1	Cone cGMP-gated channel (Morone saxatilis, UniProt Q3I0N1+Q3I0N2)	channel current, agonist, suction electrode	cone outer segments	together with: 2 µM Ca2+		Hill coefficient	2.21 ± 0.31
COc1ccc(F)cc1C(=O)NCc1ccc(-c2nn([C@@H](C)C(F)(F)F)c(N)c2C(N)=O)cc1	FGFR2 (Homo sapiens, UniProt P21802)	kinase activity, inhibitor, HotSpot radiometric		1000 nM, together with: ATP at Km		remaining activity	78.7 ± 11.7%
COc1cc(Nc2ncc3c(n2)-c2ccc(Cl)cc2C(c2c(F)cccc2OC)=NC3)ccc1C(=O)O	CHEK2	kinase activity		1 µM		remaining activity	57%
CC[C@@H](C)[C@@H](NC(=O)[C@@H](Cc1ccc(O)cc1)NC(=O)[C@H]1CCCN1C(=O)[C@@H](CCCNC(=N)N)NC(=O)[C@H](N)Cc1c[nH]cn1)C(=O)N[C@H](C)C(=O)N[C@H](Cc1c[nH]cn1)C(=O)N[C@H](CCCNC(=N)N)C(=O)N[C@@H](C(=O)N[C@H](Cc1ccc(O)cc1)C(=O)N[C@H](CO)C(=O)N[C@H](Cc1ccccc1)C(N)=O)C(C)C	Transferrin receptor protein 1 (Tfrc, Mus musculus, UniProt Q62351)	flow cytometry	DC2.4	6 h, pH 7.4, unit not given	relative to: 0 h	surface expression	0.85 and 0.864
Cc1ccc(N(C)C(=O)/C=C/c2ccco2)cc1	Voltage-dependent N-type calcium channel subunit alpha-1B (Homo sapiens, UniProt Q00975)	calcium current, inhibitor	HEK293T			Hill coefficient	2 ± 0.6
C=CC(=O)N1CCC(COCC(=O)N2CCN(c3nc(-c4cnc(N)nc4C(F)F)nc(N4CCOC[C@@H]4C)n3)CC2)CC1	SRMS (Homo sapiens, UniProt Q9H3Y6)	KINOMEscan		1 µM		remaining binding	89%
Cc1nc2c(OCc3ccccc3)cccn2c1CC#N	Genome polyprotein NS3 helicase domain	DNA binding, inhibitor	hepatitis C virus	100 µM, together with: Cy5-dT15 DNA		inhibition	1%
N#CC1CCN(C(=O)c2ccc(CSc3nc4ccccc4s3)cc2)CC1	WD repeat-containing protein 91 WD40 domain, residues 392–747	binding, SPR single-concentration screen		45 µM		SPR response	7.5 RU and 13.5 RU
COc1cc(F)ccc1-c1ncnc(Nc2cccc(C[S@](C)(=N)=O)c2)n1	EPHA3 (Homo sapiens, UniProt P29320)	kinase activity		10 µM, together with: 10 µM ATP		remaining activity	87%
Nc1nc2c(ncn2[C@@H]2O[C@H](COP(=O)(O)O)[C@@H](O)[C@H]2O)c(=O)[nH]1	GUK1 (Homo sapiens, UniProt Q16774)	enzyme activity, NADH-coupled		7.812 µM, together with: NaCl 50 mM		reaction velocity	-0.00802 µM/s and 0.0125 µM/s and 0.0154 µM/s
CC[C@@H]1[C@H](F)C(=O)N[C@@H]1COc1nccc2cc(C(N)=O)c(OC)cc12	EIF2AK4 (Homo sapiens, UniProt Q9P2K8)	ATP-site probe binding, ActivX profiling, measured: GCN2	THP-1 cell lysate	0.2 mM, Lys1 site		inhibition	-14.4%
O=C(/C=C/c1ccc(O)c(O)c1)c1ccc(O)cc1O	ESR1	array formation	PRL-HeLa		relative to: EC50 ERβ over EC50 ERα	selectivity ratio	2.44
O=S(=O)(c1ccccc1Cl)N1CCc2ccc(OCc3c(F)cccc3Cl)cc21	RORC (Homo sapiens, UniProt P51449)	binding, SPA		10 µM, together with: 3H-T0901317		displacement	75%
CC(C)(C=O)Cc1cc(C(C)(C)C)c(O)c(C(C)(C)C)c1	Genome polyprotein NS3 helicase domain	DNA binding, inhibitor	hepatitis C virus	100 µM, together with: Cy5-dT15 DNA		inhibition	0%
[O-][S+]1CCCCS1 (centres unmarked)	SOD1 (Homo sapiens, UniProt P00441, G94A)	LC-MS	human whole blood	5000 µM, 1 h, 37 °C		SOD1 dimer fraction	91.7%
CC(C)[C@H]1c2ccc(F)cc2CC[C@@]1(CCN(C)CCCc1nc2ccccc2[nH]1)OC(=O)C1CC1	Genome polyprotein NS3 helicase domain	DNA binding, inhibitor	hepatitis C virus	100 µM, together with: Cy5-dT15 DNA		inhibition	1%
CC[C@H](C)[C@H](NC(=O)[C@H](CCCCN)NC(=O)CNC(=O)[C@@H](NC(=O)[C@@H](NC(=O)[C@H](CCSC)NC(=O)[C@H](Cc1c[nH]cn1)NC(=O)CN)[C@@H](C)O)C(C)C)C(=O)N[C@@H](Cc1ccc(O)cc1)C(=O)N[C@@H](C)C(=O)N[C@@H](C)C(=O)N[C@@H](C)C(=O)N[C@@H](CCSC)C(=O)N[C@H](C(=O)N[C@@H](CCSC)C(=O)N[C@@H](CCC(=O)O)C(=O)N[C@@H](Cc1ccc(O)cc1)C(=O)N[C@@H](Cc1ccc(O)cc1)C(=O)N[C@@H](CCCNC(=N)N)C(=O)N[C@@H](CCC(N)=O)C(=O)N[C@@H](CO)C(=O)N[C@@H](CCCCN)C(=O)N[C@@H](C)C(=O)N[C@@H](CCCCN)C(=O)N[C@@H](CCCCN)C(=O)N[C@@H](CC(C)C)C(=O)N[C@@H](CCC(N)=O)C(=O)N[C@@H](C)C(=O)N[C@@H](CCSC)C(=O)N[C@@H](CCCNC(=N)N)C(=O)O)[C@@H](C)CC	Calmodulin-1, Ca2+-bound C-lobe (CALM1, Homo sapiens, UniProt P0DP23)	binding, isothermal titration calorimetry		pH 7.4, 15 °C, Ca2+-bound C-lobe, together with: CaV2.1 IQ peptide		stoichiometry	0.93 ± 0.23
N#Cc1cccc2c1CC[C@H]2NC(=O)c1ccc(OCc2nc3ccccc3s2)cc1	WD repeat-containing protein 91 WD40 domain, residues 392–747	SPR		45 µM		binding	-19% and -38%
CCn1c(=O)[nH]c2cc(C(=O)NC(c3ccc(F)cc3)c3cnn(C)c3)ccc2c1=O (centres unmarked)	WD repeat-containing protein 91	binding, SPR steady state		0.4688 µM		SPR response	4.93 RU
C#C[C@]1(O)CC[C@H]2[C@@H]3CCC4=Cc5oncc5C[C@]4(C)[C@H]3CC[C@@]21C	Genome polyprotein NS3 helicase domain	DNA binding, inhibitor	hepatitis C virus	100 µM, together with: Cy5-dT15 DNA		inhibition	0%
C[C@]12CC[C@@H]3c4ccc(O)cc4C[C@@H](CCCCCCCCC[S+]([O-])CCCC(F)(F)C(F)(F)F)[C@H]3[C@@H]1CC[C@@H]2O (some centres unmarked)	ESR1	antagonist, CALUX reporter	U2OS	3e-08 µg/mL		antagonist response	48%
COc1cc(/C=C2\CC/C(=C\c3ccc(O)c(OC)c3)C2=O)ccc1O	haemin	binding, isothermal titration calorimetry		pH 7.4, 37 °C		ΔG	-9.16 ± 0.478 kcal/mol
C[C@@]12C(=O)OC(=O)[C@]1(C)[C@H]1CC[C@@H]2O1	Genome polyprotein NS3 helicase domain	DNA binding, inhibitor	hepatitis C virus	100 µM, together with: Cy5-dT15 DNA		inhibition	0%
O=C(NC1CCCS(=O)(=O)c2ccccc21)c1ccc2nc(O)cnc2c1 (centres unmarked)	WD repeat-containing protein 91	binding, SPR steady state		0.4688 µM		SPR response	3.93 RU

For quick reference, copied from above:
SMILES	target	assay	system	setting	how to read	quantity	value
COc1cc(Nc2ncc3c(n2)-c2ccc(Cl)cc2C(c2c(F)cccc2OC)=NC3)ccc1C(=O)O	CHEK2	kinase activity		1 µM		remaining activity	57%
CC[C@@H](C)[C@@H](NC(=O)[C@@H](Cc1ccc(O)cc1)NC(=O)[C@H]1CCCN1C(=O)[C@@H](CCCNC(=N)N)NC(=O)[C@H](N)Cc1c[nH]cn1)C(=O)N[C@H](C)C(=O)N[C@H](Cc1c[nH]cn1)C(=O)N[C@H](CCCNC(=N)N)C(=O)N[C@@H](C(=O)N[C@H](Cc1ccc(O)cc1)C(=O)N[C@H](CO)C(=O)N[C@H](Cc1ccccc1)C(N)=O)C(C)C	Transferrin receptor protein 1 (Tfrc, Mus musculus, UniProt Q62351)	flow cytometry	DC2.4	6 h, pH 7.4, unit not given	relative to: 0 h	surface expression	0.85 and 0.864
